Published values gathered from unrelated publications.
Each line is one published result; not all experiments were run side by side. ≈ marks a conversion by molar mass, not a printed value.

Structure (SMILES)	test	system	setting	endpoint	value
Nc1nc(N)c(OCCCOc2ccccc2CCC(=O)O)c(C2CCCCC2)n1		female BALB/c mouse, plasma	oral, 3 mg/kg	half-life	2.5 h
Cc1ccccc1C(=O)NN=Cc1ccc(O)c(Br)c1		mouse, plasma	intraperitoneal, 0.8 mg/kg	bioavailability	107%
CCCC[C@@H]1NC(=O)[C@H](Cc2ccc(O)cc2)NC(=O)[C@@H]2CCCN2C(=O)[C@H](CC(=O)O)NC(=O)[C@H](C)NC(=O)[C@H](Cc2ccccc2)NC(=O)[C@@H]2CSCCC(=O)N3CN(CN(C3)C(=O)CCSC[C@H](NC(C)=O)C(=O)N[C@@H](CC(C)(C)C)C(=O)N[C@@H](CCC(=O)O)C(=O)N[C@@H](CCC(=O)O)C(=O)N[C@H](CCCCNC(=O)CCc3cn(CCOCCOCCOCCOCCOCCC(=O)N[C@H]4CSCCC(=O)N5CN6CN(C5)C(=O)CCSC[C@H](NC(=O)[C@@H](CC(=O)O)NC(=O)[C@H](Cc5cccc7ccccc57)NC(=O)[C@@H]5CCCN5C4=O)C(=O)N[C@@H](CCSC)C(=O)N[C@@H](CCCCNC(=N)N)C(=O)N[C@@H](CC(=O)O)C(=O)N[C@@H](Cc4c[nH]c5ccccc45)C(=O)N[C@@H](CO)C(=O)N[C@@H]([C@@H](C)O)C(=O)N4CCC[C@H]4C(=O)N4C[C@H](O)C[C@H]4C(=O)N[C@@H](Cc4c[nH]c5ccccc45)C(=O)N[C@H](C(N)=O)CSCCC6=O)nn3)C(=O)N3CCC[C@H]3C(=O)N[C@@H](Cc3ccc(O)cc3)C(=O)N2)C(=O)CCSC[C@@H](C(N)=O)NC1=O		rat, plasma	intravenous, 2 mg/kg	Vd	0.86 L/kg
CC[C@@H](C)[C@H]1NC(=O)[C@@H](Cc2ccc(O)cc2)NC(=O)[C@H](CCCNC(=N)N)NC(=O)[C@H](CCSC)NC(=O)[C@H](CC(C)C)NC(=O)[C@H](CC(C)C)NC(=O)[C@H]2CCCN2C(=O)[C@H](CC(C)C)NC(=O)CNC(=O)CNC(=O)CNC1=O		aqueous buffer	18 h, pH 7.4	solubility	661 µM (≈ 774 µg/mL)
CC(C)CC(=O)OC[C@H]1O[C@@](C#N)(c2ccc3c(N)ncnn23)[C@H](O)[C@@H]1O	general toxicity	Sprague-Dawley rat	oral, multiple doses	NOAEL	400 mg/kg/day
N#Cc1cc(NC(=O)[C@H]2c3ccccc3C(=O)N(CC(F)(F)F)[C@@H]2c2cccnc2)ccc1F	general toxicity	Sprague-Dawley rat	oral, multiple doses	NOAEL	75 mg/kg
CC(C)C[C@H](NC(=O)[C@H](Cc1ccccc1)NC(=O)[C@H](Cc1ccccc1)NC(=O)Cc1ccc(-c2ccccc2)cc1)C(=O)N[C@@H](CCCCN)C(=O)N[C@@H](CCCNC(=N)N)C(=O)N[C@H](C(=O)N[C@@H](Cc1c[nH]c2ccccc12)C(=O)N[C@@H](CCCCN)C(=O)N[C@@H](CCCNC(=N)N)C(=O)O)C(C)C	metabolic stability	monkey, liver microsomes	30 min	compound remaining	11.1%
N=c1c2c(-c3ccccc3)c(-c3ccccc3)n(Cc3ccccc3)c2ncn1[C@H]1CC[C@H](O)CC1		female minipig, plasma	oral, 2.5 mg/kg, single dose	bioavailability	> 80%
CC[C@H](C)[C@@H]1NC(=O)[C@H](CO)NC(=O)[C@H](C(C)C)NC(=O)[C@H](CC(C)C)NC(=O)[C@H](CC(C)C)NC(=O)[C@H]2CCCN2C(=O)[C@@H](CC(C)C)NC(=O)CNC(=O)[C@H]2CCCN2C(=O)[C@@H](Cc2ccc(O)cc2)NC1=O		aqueous buffer	18 h, pH 7.4	solubility	692 µM (≈ 729 µg/mL)
CCCCCCCCCCCCCCCC(=O)NCCO		mouse	oral, 2000 mg/kg, single dose	LD50	> 2000 mg/kg
CC(C)C[C@@H]1NC(=O)[C@H](CCC(=O)O)NC(=O)[C@H]2CCCN2C(=O)[C@@H](N)CSSC[C@@H](C(=O)O)NC(=O)[C@@H]2CCCN2C(=O)[C@H](Cc2ccccc2)NC(=O)[C@H](CC(C)C)N(C)C(=O)[C@H]([C@@H](C)O)NC(=O)[C@H](C(C)C)NC1=O		aqueous buffer	18 h, pH 7.4	thermodynamic solubility	741 µM (≈ 840 µg/mL)
NCCNC(=O)O[C@H]1CCC[C@@]2(C1)OOC1(O2)C2CC3CC(C2)CC1C3 (stereo partly drawn)		male CD-1 mouse, plasma	intravenous, 3 mg/kg	half-life	1.66 h
CC[C@H](C)[C@@H]1NC(=O)[C@H]2CCCN2C(=O)[C@@H](CC(C)C)NC(=O)CNC(=O)[C@H]2CCCN2C(=O)[C@@H](Cc2ccc(O)cc2)NC(=O)CNC(=O)[C@H](CO)NC(=O)[C@H](C(C)C)NC(=O)[C@H](CC(C)C)NC1=O		aqueous buffer	18 h, pH 7.4	solubility	912 µM (≈ 909 µg/mL)
CCC[C@@](N)(CO)CCc1ccc(OCCCCCC(C)C)cc1		dog, plasma	oral, 10 mg/kg, fed	Cmax	616 nM
CCCC[C@H](NC(C)=O)C(=O)N[C@H]1CC(=O)NCCCC[C@@H](C(=O)N2CCC[C@@H]2C(=O)N[C@@H](C(=O)N2CCC[C@@H]2C(N)=O)C(C)C)NC(=O)[C@H](Cc2c[nH]c3ccccc23)NC(=O)[C@H](CCCNC(=N)N)NC(=O)[C@@H](Cc2ccccc2)NC(=O)[C@@H]2CCCN2C1=O		male cynomolgus monkey, plasma	subcutaneous, 3 mg/kg	half-life	2.48 h
CC[C@H](C)[C@H]1C(=O)N[C@@H](CC(C)C)C(=O)N2CCC[C@H]2C(=O)N2CCC[C@@H]2C(=O)NCC(=O)N[C@@H](CC(C)C)C(=O)N[C@@H](CC(C)C)C(=O)N[C@@H](C)C(=O)N[C@@H](CO)C(=O)N[C@H]([C@H](C)O)C(=O)N[C@H](Cc2ccc(O)cc2)C(=O)N1C		aqueous buffer	18 h, pH 7.4	solubility	759 µM (≈ 865 µg/mL)
CC(C)(C)[C@H](NC(=O)[C@H](CCONC(=N)N)NC(=O)Cc1ccc(CNC(=N)N)cc1)C(=O)N[C@@H](CCONC(=N)N)C(=O)NCc1ccc(C(=N)N)cc1		male Sprague-Dawley rat, plasma	intravenous, 1 mg/kg	Vd	0.569 L/kg
CC(C)C[C@@H]1NC(=O)[C@H](CCC(=O)O)NC(=O)[C@H]2CCCN2C(=O)[C@@H](N)CSSC[C@@H](C(=O)O)NC(=O)[C@H]2CCCN2C(=O)[C@@H](Cc2ccccc2)NC(=O)[C@H](CC(C)C)NC(=O)[C@H]([C@@H](C)O)NC(=O)[C@H](C(C)C)NC1=O		aqueous buffer	18 h, pH 7.4	solubility	676 µM (≈ 757 µg/mL)
O=C/C=C/c1ccccc1	metabolic stability	human, liver microsomes	10 µM, pH 7.4	half-life	0.0575 h
CC(C)C[C@H]1C(=O)O[C@H](Cc2ccc(N3CCOCC3)cc2)C(=O)N(C)[C@@H](CC(C)C)C(=O)O[C@H](C)C(=O)N(C)[C@@H](CC(C)C)C(=O)O[C@H](Cc2ccc(N3CCOCC3)cc2)C(=O)N(C)[C@@H](CC(C)C)C(=O)O[C@H](C)C(=O)N1C		aqueous buffer	18 h, pH 7.4	solubility	1 µM (≈ 1.12 µg/mL)
CC[C@H](C)CCCCC(=O)N[C@@H](CCN)C(=O)N[C@H](C(=O)N[C@@H](CCN)C(=O)N[C@H]1CCNC(=O)[C@H]([C@@H](C)O)NC(=O)[C@H](CCN)NC(=O)[C@H](CCN)NC(=O)[C@H](CC(C)C)NC(=O)[C@@H](CC(C)C)NC(=O)[C@H](CCN)NC1=O)[C@@H](C)O		male Sprague-Dawley rat, plasma	intravenous, 5 mg/kg	clearance	6.81 mL/min/kg

Repeated from above:
Structure (SMILES)	test	system	setting	endpoint	value
CCC[C@@](N)(CO)CCc1ccc(OCCCCCC(C)C)cc1		dog, plasma	oral, 10 mg/kg, fed	Cmax	616 nM
CC[C@H](C)CCCCC(=O)N[C@@H](CCN)C(=O)N[C@H](C(=O)N[C@@H](CCN)C(=O)N[C@H]1CCNC(=O)[C@H]([C@@H](C)O)NC(=O)[C@H](CCN)NC(=O)[C@H](CCN)NC(=O)[C@H](CC(C)C)NC(=O)[C@@H](CC(C)C)NC(=O)[C@H](CCN)NC1=O)[C@@H](C)O		male Sprague-Dawley rat, plasma	intravenous, 5 mg/kg	clearance	6.81 mL/min/kg
